Published values pooled from the literature.
Lines come from different studies, so protocols differ. ± marks the error that the study gave.

| SMILES | test | system | setting | endpoint | value |
| --- | --- | --- | --- | --- | --- |
| C[C@]12CC[C@H](OCC[18F])C[C@H]1CC[C@@H]1[C@@H]2CC[C@]2(C)[C@@H](c3ccc(=O)oc3)CC[C@]12O | – | male BALB/c nude mice, HepG2 xenograft, liver | intravenous, 7.4 MBq, 240 min | tissue uptake | 7.51 ± 1.17 %ID/g |
| CCCC[C@H](NC(=O)CN1CCC(NC(=O)CN2CCC(NC(=O)CN3CCN(CC(=O)O)CCN(CC(=O)O)CCN(CC(=O)O)CC3)CC2)CC1)C(=O)N[C@H]1CC(=O)NCCCC[C@@H](C(N)=O)NC(=O)[C@H](Cc2c[nH]c3ccccc23)NC(=O)[C@H](CCCNC(=N)N)NC(=O)[C@@H](Cc2ccccc2)NC(=O)[C@H](Cc2c[nH]cn2)NC1=O [gallium-68 labelled] | – | C57BL/6J mice male B16-F10 tumour, testes | 1 h post injection, unblocked | tissue uptake | 0.2 %ID/g |
| COC(=O)C[C@](O)(CCCC(C)(C)OC(C)=O)C(=O)O[C@@H]1C(OC)=C[C@]23CCCN2CCc2cc4c(cc2[C@H]13)OCO4 | – | CD1 mice, esophagus | oral, 1 mg/kg, 8 h | tissue concentration | not detected |
| COc1cc(C(=O)NCCOCCOCCOCCNC(=O)c2ccc([18F])nc2)ccc1NC(=O)C1NC(CC(C)(C)C)C(C#N)(c2ccc(Cl)cc2F)C1c1cccc(Cl)c1F (centres unmarked) | – | athymic male mice, HepG2 xenograft, bladder | 4 h | tissue uptake | 1.6 ± 1.96 %ID/g |
| C/C=C/C=C/C/C=C/CCCCCCCc1cccc(O)c1O | – | female Kunming mice, tumour-bearing, spleen | intravenous, 10 mg/kg, 12 h | tissue concentration | 2070 ± 130 ng/g |
| CC(C)C[C@H]1NC(=O)[C@H](NC(=O)CN)CSSC[C@H]2NC(=O)[C@H]3CSSC[C@H](C(=O)N[C@H](CC(N)=O)C(=O)N[C@H](Cc4ccccc4)C(=O)N[C@H](CO)C(=O)N[C@H](Cc4ccccc4)C(N)=O)NC(=O)[C@@H](CC(C)C)NC(=O)[C@@H](CCCCN)NC(=O)[C@@H](Cc4ccccc4)NC(=O)[C@@H](CC(C)C)NC(=O)[C@@H](CCCCN)NC(=O)[C@@H](CO)NC(=O)[C@@H](CSSC[C@@H](NC(=O)[C@@H](CCCCN)NC(=O)[C@@H](Cc4c[nH]c5ccccc45)NC(=O)[C@@H](Cc4c[nH]c5ccccc45)NC(=O)[C@@H](Cc4ccccc4)NC(=O)[C@@H](CCC(=O)O)NC1=O)C(=O)N[C@H](CC(N)=O)C(=O)N1CCC[C@@H]1C(=O)N[C@H](CC(N)=O)C(=O)N[C@H](CC(=O)O)C(=O)N[C@H](CC(=O)O)C(=O)N[C@H](CCCCN)C(=O)N3)NC(=O)[C@@H](CCCCN)NC(=O)[C@@H](CC(C)C)NC(=O)[C@@H](CCCCN)NC(=O)[C@H]1CCCN1C(=O)[C@@H](CCCNC(=N)N)NC2=O | LC-MS/MS | D2.mdx mice, muscle | subcutaneous, dose not given | tissue concentration at chronic dosing | 500 to 2000 nM |
| NC(=O)[C@@H](CCCCNC(=O)CNC(=O)CCC(=O)NCCc1c[nH]cn1)NC(=O)[C@@H](Cc1ccc(O)cc1)NC(=O)[C@@H](CCCCNC(=O)CNC(=O)CCC(=O)NCCc1c[nH]cn1)NC(=O)Cc1ccc(CN2CCN(CC(=O)O)CCN(CC(=O)O)CC2)cc1 [fluorine-18 labelled] | – | tumour-bearing nude mice, bone | intravenous, 1.04 MBq, 1 h, no pretargeting | tissue uptake | 0.11 ± 0.02 %ID/g |
| CCCC[C@H](NC(=O)CCOCCOCCNC(=O)CN1CCN(CC(=O)O)CCN(CC(=O)O)CCN(CC(=O)O)CC1)C(=O)N[C@H]1CC(=O)NCCCC[C@@H](C(N)=O)NC(=O)[C@H](Cc2c[nH]c3ccccc23)NC(=O)[C@H](CCCNC(=N)N)NC(=O)[C@@H](Cc2ccccc2)NC(=O)[C@H](Cc2c[nH]cn2)NC1=O [gallium-68 labelled] | – | C57BL/6J mice male B16-F10 tumour, testes | 1 h post injection, unblocked | tissue uptake | 0.2 ± 0.1 %ID/g |
| COc1ccc(C)cc1NC(=O)OC1CC2CCCC(C1)N2Cc1ccc(CC[18F])cc1 (centres unmarked) | – | BALB/c mice, EMT6 tumour, liver | 1 h | tissue uptake | 23.4 ± 2 %ID/g |
| C[S]1CC[S]2CC[P](CO)(CO)[99Tc+]12.[C-]#[O+].[C-]#[O+].[C-]#[O+] | – | CF-1 mice, female, urine | intravenous, 1 h | tissue uptake | 46.3 %ID |
| [3H]c1sc(C)nc1C=C(C)C1CC2C(CCCC(C)C(O)C(C)C(=O)C(C)(C)C(O)CC(=O)O1)N2CCO (centres unmarked) | LC-MS/MS | CD2F1 mice tumour-bearing, heart | intravenous, 2.2 nmol/kg, 6 h | tissue concentration | 610 ± 170 ng/g |

Repeated from above:
| SMILES | test | system | setting | endpoint | value |
| --- | --- | --- | --- | --- | --- |
| COc1ccc(C)cc1NC(=O)OC1CC2CCCC(C1)N2Cc1ccc(CC[18F])cc1 (centres unmarked) | – | BALB/c mice, EMT6 tumour, liver | 1 h | tissue uptake | 23.4 ± 2 %ID/g |
| C[S]1CC[S]2CC[P](CO)(CO)[99Tc+]12.[C-]#[O+].[C-]#[O+].[C-]#[O+] | – | CF-1 mice, female, urine | intravenous, 1 h | tissue uptake | 46.3 %ID |
